Published values gathered from unrelated publications.
Every numbered part comes from another study and shows a few of its results, in no order.
Sequence of UniProt P08912 (whole entry, looked up): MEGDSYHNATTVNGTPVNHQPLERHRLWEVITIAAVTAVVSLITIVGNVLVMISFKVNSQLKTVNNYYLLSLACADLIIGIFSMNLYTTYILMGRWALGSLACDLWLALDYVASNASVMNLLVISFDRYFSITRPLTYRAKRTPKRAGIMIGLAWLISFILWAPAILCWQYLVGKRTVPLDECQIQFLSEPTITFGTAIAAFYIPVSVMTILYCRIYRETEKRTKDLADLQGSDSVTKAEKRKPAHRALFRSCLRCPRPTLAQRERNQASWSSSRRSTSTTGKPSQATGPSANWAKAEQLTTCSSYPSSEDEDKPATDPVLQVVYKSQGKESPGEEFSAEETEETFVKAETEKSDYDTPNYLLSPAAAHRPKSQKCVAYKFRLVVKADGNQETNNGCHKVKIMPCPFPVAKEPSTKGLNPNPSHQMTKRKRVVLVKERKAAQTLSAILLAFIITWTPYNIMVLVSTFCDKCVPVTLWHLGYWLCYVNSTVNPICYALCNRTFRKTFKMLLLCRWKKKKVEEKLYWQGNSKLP
Sequence of UniProt P08913 (whole entry, looked up): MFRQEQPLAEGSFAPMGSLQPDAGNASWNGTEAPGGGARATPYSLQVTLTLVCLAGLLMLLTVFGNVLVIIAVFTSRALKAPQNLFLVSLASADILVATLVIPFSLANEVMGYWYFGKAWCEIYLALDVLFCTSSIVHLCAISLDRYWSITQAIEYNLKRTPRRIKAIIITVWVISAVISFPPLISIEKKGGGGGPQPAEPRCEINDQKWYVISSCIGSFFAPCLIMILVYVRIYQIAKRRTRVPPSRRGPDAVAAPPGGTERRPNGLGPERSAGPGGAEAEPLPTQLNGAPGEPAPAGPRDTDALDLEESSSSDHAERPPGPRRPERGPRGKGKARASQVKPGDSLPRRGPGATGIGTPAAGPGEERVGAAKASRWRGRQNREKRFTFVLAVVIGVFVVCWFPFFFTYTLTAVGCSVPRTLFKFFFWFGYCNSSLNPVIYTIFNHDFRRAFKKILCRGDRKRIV
Sequence of UniProt P21917 (whole entry, looked up): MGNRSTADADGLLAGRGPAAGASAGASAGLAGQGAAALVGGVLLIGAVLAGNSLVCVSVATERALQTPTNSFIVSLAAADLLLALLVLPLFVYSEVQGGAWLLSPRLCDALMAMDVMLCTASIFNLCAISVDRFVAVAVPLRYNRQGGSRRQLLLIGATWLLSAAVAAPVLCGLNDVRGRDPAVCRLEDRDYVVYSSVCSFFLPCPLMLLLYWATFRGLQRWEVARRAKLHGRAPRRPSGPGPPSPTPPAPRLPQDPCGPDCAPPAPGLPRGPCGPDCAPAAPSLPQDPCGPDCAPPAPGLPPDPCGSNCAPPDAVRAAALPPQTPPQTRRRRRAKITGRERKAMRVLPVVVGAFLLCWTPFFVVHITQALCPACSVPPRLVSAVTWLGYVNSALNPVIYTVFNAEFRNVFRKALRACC
Sequence of UniProt P28222 (whole entry, looked up): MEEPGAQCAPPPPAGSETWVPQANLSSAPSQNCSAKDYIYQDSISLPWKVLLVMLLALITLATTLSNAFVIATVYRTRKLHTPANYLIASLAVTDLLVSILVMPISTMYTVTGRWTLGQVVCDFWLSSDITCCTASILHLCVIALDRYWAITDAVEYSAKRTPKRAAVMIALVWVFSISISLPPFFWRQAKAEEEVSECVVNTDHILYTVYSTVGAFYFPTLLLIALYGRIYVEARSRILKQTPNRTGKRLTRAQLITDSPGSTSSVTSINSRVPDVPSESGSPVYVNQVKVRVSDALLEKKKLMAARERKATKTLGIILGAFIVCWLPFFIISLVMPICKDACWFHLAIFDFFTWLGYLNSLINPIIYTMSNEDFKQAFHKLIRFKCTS

Series 1
SMILES: CNC(=O)c1cc(C(=O)N[C@H]2[C@@H]3COC[C@@H]32)cc2c1O[C@@H](CF)[C@@H]2c1ccccc1
Effect on: binding
Technique: radioligand binding
Tested at: 10 µM
target	inhibition [%]
Alpha-2A adrenergic receptor (ADRA2A, Homo sapiens, UniProt P08913)	13.8
5-hydroxytryptamine receptor 1B (HTR1B, Homo sapiens, UniProt P28222)	-8.28
Muscarinic acetylcholine receptor M5 (CHRM5, Homo sapiens, UniProt P08912)	18
D(4) dopamine receptor (DRD4, Homo sapiens, UniProt P21917)	17.7

Series 2
Target: Eukaryotic initiation factor 4A-I (EIF4A1, Homo sapiens, UniProt P60842, residues 1-406, full length assumed)
Sequence of UniProt P60842 (whole entry, looked up): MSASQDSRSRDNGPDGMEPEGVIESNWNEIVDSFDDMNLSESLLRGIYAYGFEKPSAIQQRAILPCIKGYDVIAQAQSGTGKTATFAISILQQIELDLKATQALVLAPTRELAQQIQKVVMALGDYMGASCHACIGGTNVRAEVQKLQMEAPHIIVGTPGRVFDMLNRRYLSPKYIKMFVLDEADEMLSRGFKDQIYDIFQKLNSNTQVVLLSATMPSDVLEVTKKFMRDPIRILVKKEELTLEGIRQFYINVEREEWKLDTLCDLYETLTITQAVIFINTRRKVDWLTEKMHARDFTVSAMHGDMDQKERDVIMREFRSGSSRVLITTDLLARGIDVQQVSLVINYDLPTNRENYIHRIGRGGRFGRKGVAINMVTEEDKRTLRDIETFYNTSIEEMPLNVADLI
Technique: RNA Bind-n-Seq
Molecule type: RNA
Sample: in vitro
Tested at: 15 pmol
Notes: 4-mer, random 30-nt RNA, single round
Together with: DMSO vehicle, 2 mM AMP-PNP
Reference: input library
Reading: higher = stronger binding
Strand	4-mer enrichment [fold]
AGAG	0.993
CACC	1.55
GACC	2.01
AAUU	0.862
ACUC	1.1
UUUC	0.904
UUUA	0.881
CAAA	1.51

Series 3
Target: Myosin light chain kinase, smooth muscle (MYLK, Homo sapiens, UniProt Q15746)
Sequence of UniProt Q15746 (whole entry, looked up): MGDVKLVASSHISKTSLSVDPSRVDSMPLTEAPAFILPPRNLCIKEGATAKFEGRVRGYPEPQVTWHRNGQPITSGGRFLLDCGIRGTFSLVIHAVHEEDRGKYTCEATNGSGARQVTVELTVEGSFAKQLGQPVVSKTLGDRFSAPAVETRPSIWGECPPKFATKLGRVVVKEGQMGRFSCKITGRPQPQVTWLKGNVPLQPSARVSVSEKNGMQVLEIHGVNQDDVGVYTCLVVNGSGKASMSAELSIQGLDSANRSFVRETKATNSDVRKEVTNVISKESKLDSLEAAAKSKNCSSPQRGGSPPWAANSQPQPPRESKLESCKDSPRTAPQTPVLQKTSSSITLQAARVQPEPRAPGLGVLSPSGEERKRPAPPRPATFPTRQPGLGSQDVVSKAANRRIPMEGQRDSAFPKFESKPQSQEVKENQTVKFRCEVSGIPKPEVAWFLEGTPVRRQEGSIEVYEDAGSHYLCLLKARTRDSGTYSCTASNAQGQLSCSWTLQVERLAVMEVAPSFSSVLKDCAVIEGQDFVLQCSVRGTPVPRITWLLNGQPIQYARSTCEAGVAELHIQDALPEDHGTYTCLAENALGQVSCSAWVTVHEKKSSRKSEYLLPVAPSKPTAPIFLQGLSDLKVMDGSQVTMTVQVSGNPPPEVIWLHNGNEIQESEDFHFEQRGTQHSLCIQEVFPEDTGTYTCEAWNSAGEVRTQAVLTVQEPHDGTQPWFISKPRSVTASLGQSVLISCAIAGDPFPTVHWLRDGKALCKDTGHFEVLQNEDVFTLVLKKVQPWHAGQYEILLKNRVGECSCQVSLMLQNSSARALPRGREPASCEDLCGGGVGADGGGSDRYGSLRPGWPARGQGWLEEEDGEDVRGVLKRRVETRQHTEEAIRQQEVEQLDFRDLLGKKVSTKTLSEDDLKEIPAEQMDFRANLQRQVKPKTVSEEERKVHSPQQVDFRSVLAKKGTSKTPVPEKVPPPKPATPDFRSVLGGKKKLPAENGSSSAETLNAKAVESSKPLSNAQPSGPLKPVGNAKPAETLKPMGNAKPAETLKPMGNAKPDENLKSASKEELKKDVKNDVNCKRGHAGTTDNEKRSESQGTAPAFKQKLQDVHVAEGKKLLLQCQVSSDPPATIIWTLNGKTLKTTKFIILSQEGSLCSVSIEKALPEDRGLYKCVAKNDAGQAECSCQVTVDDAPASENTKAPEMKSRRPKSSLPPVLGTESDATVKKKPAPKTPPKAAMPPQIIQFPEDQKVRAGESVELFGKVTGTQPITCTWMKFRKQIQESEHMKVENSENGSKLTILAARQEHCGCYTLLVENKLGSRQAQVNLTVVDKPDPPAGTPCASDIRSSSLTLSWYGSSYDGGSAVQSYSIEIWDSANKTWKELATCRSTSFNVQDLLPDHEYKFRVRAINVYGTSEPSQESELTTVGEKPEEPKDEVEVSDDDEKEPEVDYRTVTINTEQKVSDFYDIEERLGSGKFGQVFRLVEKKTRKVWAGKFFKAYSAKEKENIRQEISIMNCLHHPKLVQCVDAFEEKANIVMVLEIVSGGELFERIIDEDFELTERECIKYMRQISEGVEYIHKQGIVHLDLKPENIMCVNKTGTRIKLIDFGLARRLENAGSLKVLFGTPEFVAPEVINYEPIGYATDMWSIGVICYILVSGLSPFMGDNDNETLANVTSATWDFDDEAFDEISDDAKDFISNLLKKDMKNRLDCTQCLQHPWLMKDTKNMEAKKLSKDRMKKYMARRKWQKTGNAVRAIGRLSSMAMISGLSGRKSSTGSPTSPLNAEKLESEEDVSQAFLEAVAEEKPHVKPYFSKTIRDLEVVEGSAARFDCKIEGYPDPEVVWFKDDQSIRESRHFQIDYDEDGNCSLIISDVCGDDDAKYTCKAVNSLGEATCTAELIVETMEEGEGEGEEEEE
Effect on: enzyme activity
Mode: inhibitor
Tested at: 0.5 µM
Reference: control
SMILES	remaining activity [%]
COc1ccc(OC)c2c(=S)c3ccccc3[nH]c12	89.8
O=C(O)c1ccc2c3c1cccc3c(=O)n1c3ccccc3nc21	89.8
COc1ccc(CNC(=O)Nc2ncc([N+](=O)[O-])s2)cc1	94.1
Cc1cccc(-c2[nH]c(C(C)(C)C)nc2-c2ccc3c(c2)OCO3)n1	105
CN(C)c1ccc(C=C2C(=O)Nc3ccccc32)cc1	90.5
CCOC(=O)c1c(C)[nH]c(/C=C2\C(=O)Nc3ccccc32)c1C	94.8
Cn1sc(=O)n(Cc2ccccc2)c1=O	94.5
C#Cc1cccc(Nc2ncnc3cc(OCCOC)c(OCCOC)cc23)c1	84.7
CNC(=O)c1cc(Oc2ccc(NC(=O)Nc3ccc(Cl)c(C(F)(F)F)c3)cc2)ccn1	93.7
NCCNc1ncc(C(N)=O)c(Nc2cccc(C(F)(F)F)c2)n1	96.7
COc1cc2ncnc(Nc3ccc(Oc4ccccc4)cc3)c2cc1OC	105
O=C(CCCc1ccc(-c2ccccc2F)cc1)Nc1ccc(O)cc1	98.6
COc1cc2nccc(Oc3ccc(NC(=S)NC(=O)c4ccccc4C)cc3)c2cc1OC	104
O=C1NC(=O)C(c2cn(CCCn3ccnc3)c3ccccc23)=C1Nc1ccccc1	81.6

Series 4
Target: Histone acetyltransferase KAT6A, both winged helices, GST fusion (KAT6A, Homo sapiens, UniProt Q92794, residues 1-181)
Technique: protein binding microarray
Molecule type: double-stranded DNA, one strand shown
Sample: in vitro
Tested at: not given
Notes: 8-mer, flanks averaged, mean of 2 arrays, mostly near background
Reference: not given
Reading: higher = stronger binding
Residues (chain): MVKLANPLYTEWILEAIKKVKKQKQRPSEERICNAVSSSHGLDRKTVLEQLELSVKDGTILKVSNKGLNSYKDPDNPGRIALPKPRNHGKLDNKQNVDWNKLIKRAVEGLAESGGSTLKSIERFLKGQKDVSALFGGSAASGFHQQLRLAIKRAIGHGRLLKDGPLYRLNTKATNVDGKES
Strand	E-score
ATCAGACG	0.105
CACAGCGA	0.102
AGGATAAC	-0.208
ATATGCAC	2e-05
CGCATGCA	0.186
AAGAAGCC	0.0425
GCGGAAAC	0.254
AACGTCCC	-0.0565
